# Measured values from different studies.
# Numbered parts are unrelated; each lists some results of a single study. Changes are numbered by the printed parent chain.

# Block 1
# Target: CCND3, cyclin fold, Cln2 fusion (human)
# Method: yeast growth competition, sequencing
# Sample: yeast
# Setting: weak parent motif
# Relative to: not given
# Reading: higher = stronger binding
# Parent: RBL2 docking peptide (human); STTRRRLFVENDS; partner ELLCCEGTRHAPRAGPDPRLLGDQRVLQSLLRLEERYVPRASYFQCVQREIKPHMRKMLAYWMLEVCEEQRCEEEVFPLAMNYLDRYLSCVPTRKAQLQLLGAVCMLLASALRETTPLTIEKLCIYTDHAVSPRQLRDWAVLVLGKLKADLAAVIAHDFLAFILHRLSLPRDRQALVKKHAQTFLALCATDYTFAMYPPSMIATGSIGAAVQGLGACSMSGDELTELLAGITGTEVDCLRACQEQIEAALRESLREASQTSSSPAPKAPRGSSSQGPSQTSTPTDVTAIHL
Change,normalised enrichment score
T3S,0.098
R4N,0.0696
F8V,0.15
T3Y,0.225
T3I,0.066
S13N,0.0199
D12L,0.0158
S13V,0.127
R5Y,0.155
D12S,0.0859
R4P,0.152
N11T,0.144
R4A,0.186
L7C,0.0839
N11H,0.0942
N11W,0.136
S13M,0.112
F8T,0.182

# Block 2
# Target: RNA binding protein fox-1 homolog 2, RRM domain, GST-SBP tag (RBFOX2, Homo sapiens, UniProt O43251-10, residues 100-194)
# Method: RNA Bind-n-Seq
# Molecule type: RNA
# Sample: in vitro
# Concentration: 365 nM
# Setting: natural RNA segment, single round, ends assumed
# Relative to: no-protein control
# Reading: higher = stronger binding
# Residues (chain): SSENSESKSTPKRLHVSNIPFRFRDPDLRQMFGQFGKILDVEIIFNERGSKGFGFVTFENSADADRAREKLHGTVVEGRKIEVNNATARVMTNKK
Sequence,RBNS enrichment (R)
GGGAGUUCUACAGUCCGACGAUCAGACCAGCUGCCCUCCUGGCUUUUGGCUUUUUGGUGUCCUUGAAGGAGACCAGUCAUGAGUACCAAGGAAUUUGUCAGCUUGGUUCUAGAACUUAGCAGAGGUUGAGCUCUGGAAUUCUCGGGUGCCAA,0.234
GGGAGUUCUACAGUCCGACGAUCCUCACUGUAUUCUUUUUAUCCUGGGGCCACAGUUCUUGAUUAUUCCUCUUGUGGUUAAAGACUGAAUUUGUAAACCCAUUCAGAUAAAUGGCAGUACUUUAGGACACACAUGGAAUUCUCGGGUGCCAA,0.304
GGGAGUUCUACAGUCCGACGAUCGCUGUGACUUCUUAUCCAGGCCCCCAACUUAUGUCCUUAGGGUCAUCUUGGAGAACCACAAUGGAUUCUUCUGUCUCUAUACUUUCUGGGGUUCUUUCCCCUCCCUCUCAUGGAAUUCUCGGGUGCCAA,0.611
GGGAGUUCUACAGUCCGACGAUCAAAGGAUCAGGCUCGUAGGGAGCAGGAUCAUGCCAGAAAUAGGGAUGGAAGUGCAUCCUCUGGGAAAAAGAUAAUGGCUUCUGAUUCAACAUAGCCAUAGUCCUUUGAAGUGGAAUUCUCGGGUGCCAA,0.676
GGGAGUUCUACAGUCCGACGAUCGAUCAAAGAUUAUUUUCAAAAAUGAGAUAUCAAUUUGGUAUCAGUAAAAAGUGUCUUUUCUCUUAGUAUAUAAAUAAAUAAAAUGCAAAUUAAGAGUGUAAGCAGUUGUGUGGAAUUCUCGGGUGCCAA,0.448
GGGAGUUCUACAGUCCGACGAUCUCUUCCCCAGCACAGGGCAGACAGUGCUCACAAACAUUUGCCACUGGCCAUUGUCUCUGGAUCCCCUCAGAAAGCUGCCUCCCCUAGGCAGGUGCCUUUUGGACAGUUGUUGGAAUUCUCGGGUGCCAA,0.267
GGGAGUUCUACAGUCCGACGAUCUCCCCGCAGAGUCUCCGGUGCAGACGCGCUGCGGGGAUGGGGAGCGGCGUGCCAAUCUGCGGGUCCCCUGCGGCCCCUGCUGCCGCUGCGCUGUCCCGGCCGCAAGAGCGUGGAAUUCUCGGGUGCCAA,0.203
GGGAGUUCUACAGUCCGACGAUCGGACUCCUGGGUUAGCAUCAAGACGGCUGCCUGCUGAGGGGCGCUUUCCUUCUGACUCUGUUUGGAUUGAGGGGAAGUCCGUCUUGCUGAUGAUGGUGACCGUGAAAGUGUGGAAUUCUCGGGUGCCAA,0.583

# Block 3
# Target: ABI1, truncated, D143A, DHFR fusion (Arabidopsis thaliana)
# Method: DHFR PCA, deep sequencing
# Sample: yeast
# Setting: methotrexate growth selection, single substitutions
# Together with: (+)-ABA 200 µM
# Relative to: wild-type fitted maximum
# Reading: higher = stronger binding
# Parent: PYL1, truncated, DHFR fusion (Arabidopsis thaliana); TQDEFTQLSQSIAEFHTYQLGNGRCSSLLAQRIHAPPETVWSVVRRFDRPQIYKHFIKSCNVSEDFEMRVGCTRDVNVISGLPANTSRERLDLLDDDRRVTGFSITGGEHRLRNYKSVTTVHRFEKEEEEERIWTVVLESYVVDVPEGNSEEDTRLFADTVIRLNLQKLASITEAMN
Change,relative binding score [%]
R46K,87.9
V76Q,-2.42
D3E,102
N22H,100
T154Q,10.7
F15M,84.3
N149I,43.2
G71C,36.1
T73H,101
Y141Q,3.11
K116E,67.9
G71L,41.5
I79E,85.5
T1S,95.2

# Block 4
# Target: Ras GTPase-activating protein-binding protein 1, full length (G3BP1, Homo sapiens, UniProt Q13283)
# UniProt Q13283, sequence (whole entry, looked up): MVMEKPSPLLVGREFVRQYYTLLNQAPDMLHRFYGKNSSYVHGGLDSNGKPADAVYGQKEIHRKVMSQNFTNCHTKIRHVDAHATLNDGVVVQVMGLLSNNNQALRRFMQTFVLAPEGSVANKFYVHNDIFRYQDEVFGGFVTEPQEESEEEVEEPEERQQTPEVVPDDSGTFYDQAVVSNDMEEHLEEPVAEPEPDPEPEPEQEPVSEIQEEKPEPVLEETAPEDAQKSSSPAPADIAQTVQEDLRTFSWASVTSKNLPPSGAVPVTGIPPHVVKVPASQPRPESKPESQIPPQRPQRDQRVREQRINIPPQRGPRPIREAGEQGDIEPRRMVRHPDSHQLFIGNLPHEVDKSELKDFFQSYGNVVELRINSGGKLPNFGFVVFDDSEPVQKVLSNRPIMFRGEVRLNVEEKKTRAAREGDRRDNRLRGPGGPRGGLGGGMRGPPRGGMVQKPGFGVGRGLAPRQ
# Method: RNA Bind-n-Seq
# Molecule type: RNA
# Sample: in vitro
# Concentration: 200 nM
# Setting: whole 134-nt RNA, ends assumed
# Together with: 150 mM KCl
# Relative to: input library
# Reading: higher = stronger binding
Sequence,log2 enrichment
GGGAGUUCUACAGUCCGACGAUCGCAGGAAGUAAAAACAAAUGGAAAUGCUUCGGAUAGUGGCAGGAAAGGGGGUUGCUAAGGAAAGGGUGGGAUGGGAGUGGGUAAAGAGUUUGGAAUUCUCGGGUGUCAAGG,0.749
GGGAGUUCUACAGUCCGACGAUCUAACUUUAGAGGAGGGUCUGAUGGAUAUGGCAGUGGACGUGGAUUUGGGGAUGGCUAUAAUGGGUAUGGAGGAGGACCUGGAGGUGGCAAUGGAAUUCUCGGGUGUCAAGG,0.397
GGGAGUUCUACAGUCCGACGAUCCACAGACAACACGCACCCACACAGACACAGAGGGAAGGGGUUGGGAUGGGGACAGGGUACACAGCAGGGCGGGGUAGGACCCCAGCCCCUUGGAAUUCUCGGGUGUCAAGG,1.75
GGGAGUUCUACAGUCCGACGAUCCUCAAGUCCUGUGCUACACAUCGUAUGUACCGAAUCGGAAAGGAAAAAGGAGGAAAGUAUUAUGUUACGCCGUUCGGAUCUGCACUUCCAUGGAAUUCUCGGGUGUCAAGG,-0.411
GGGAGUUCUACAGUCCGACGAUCCAAGUCCUGUGCUACACAUCGUAUGUACCGAAUCGGGUUUUUGGGAAAGGGUGGGAAAGUAUUAUGUUACGCCGUUCGGAUCUGCACUUCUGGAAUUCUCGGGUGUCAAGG,0.466
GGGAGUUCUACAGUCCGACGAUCUCUUCAGAGGCCCCACAGUAUCAAAUAUCCGCCUGGCUGGAUUAGAGUAUGUUCUGCACUUCACUGCACUGAAUGGGAAGAUUUACUUUCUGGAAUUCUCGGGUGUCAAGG,-0.12
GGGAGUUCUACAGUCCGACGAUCGUCCUGUGCUACACAUCGUAUGUACCGAAUCGGGGAAAAAGGGGAAAAAGGAAAAAGGGAAAGUAUUAUGUUACGCCGUUCGGAUCUGCAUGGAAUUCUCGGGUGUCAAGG,-0.342
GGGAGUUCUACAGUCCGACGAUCUGGGAGGUGGAUUUUGUUUAUUUUUUUAGCCCAUUUCCAGGGGUGGGAAUUUUUUUUUAAUAUGUGUCAUGAAUAAAGUUGUUUUUGAAAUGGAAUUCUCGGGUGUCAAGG,0.0639
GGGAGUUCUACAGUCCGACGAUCCCUCAAGUCCUGUGCUACACAUCGUAUGUACCGAAUCGGGGCGGGCGGGGCGGAAAGUAUUAUGUUACGCCGUUCGGAUCUGCACUUCCAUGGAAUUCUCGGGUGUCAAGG,1.16

# Excerpt of the above (block 1):
Change,normalised enrichment score
T3Y,0.225
T3I,0.066
S13N,0.0199
D12L,0.0158
S13V,0.127
R5Y,0.155
D12S,0.0859
